Measured values from different studies.
Lines come from different studies, so protocols differ. Values joined by “and” are separate records of one study, mostly repeats; a detail may differ. Numbers after ± are the reported error.

| Compound | target or system | assay | test system | setting | how to read | endpoint | result |
| --- | --- | --- | --- | --- | --- | --- | --- |
| C(#Cc1cncc(OC[C@@H]2CCN2)c1)c1ccccc1 | – | – | male Sprague-Dawley rat, plasma | oral, 75 mg/kg, 2 h | – | concentration | 410 ng/mL |
| CN1Cc2cc(Cl)ccc2-n2c(nnc2C2CCN(c3cccc([18F])n3)CC2)C1 | – | – | C57BL/6 mouse male, liver | intravenous, 3.7 MBq, 60 min | – | tissue uptake | 10.8 ± 1.31 %ID/g |
| N#[11C]c1ccc(-c2csc(NN=C3CCCC3)n2)cc1 | – | – | C57BL/6 mice, male, bone | intravenous, 3 MBq, 15 min | – | radioactivity uptake | 2.08 ± 0.31 %ID/g |
| C#Cc1c(F)ccc2cc(O)cc(-c3ncc4c(N5CC6CCC(C5)N6C(=O)OC(C)OC(=O)C5CCOCC5)nc(OC[C@@]56CCCN5C[C@H](F)C6)nc4c3F)c12 (stereo partly shown) | – | refers to: prodrug | mouse whole blood | 1 µM | – | t1/2 | 0.0895 h |
| CSCC[C@H](N)C(=O)N[C@@H](C)C(=O)N[C@@H](CCCNC(=N)N)C(=O)N[C@@H](CCCNC(=N)N)C(=O)N[C@@H](CC(=O)O)C(=O)N[C@@H](CCCCN)C(=O)N[C@H](C(=O)N[C@@H](CC(=O)O)C(=O)N[C@@H](Cc1ccccc1)C(=O)N[C@@H](C)C(=O)N[C@@H](CCCNC(=N)N)C(=O)N[C@@H](CCCNC(=N)N)C(=O)N[C@@H](CCCNC(=N)N)C(=O)N[C@@H](CCCNC(=N)N)C(=O)NCCCCCC(=O)NCCCCC(NC(=O)CCCCCNC(=O)[C@H](CCCNC(=N)N)NC(=O)[C@H](CCCNC(=N)N)NC(=O)[C@H](CCCNC(=N)N)NC(=O)[C@H](CCCNC(=N)N)NC(=O)[C@H](C)NC(=O)[C@H](Cc1ccccc1)NC(=O)[C@H](CC(=O)O)NC(=O)[C@@H](NC(=O)[C@H](CCCCN)NC(=O)[C@H](CC(=O)O)NC(=O)[C@H](CCCNC(=N)N)NC(=O)[C@H](CCCNC(=N)N)NC(=O)[C@H](C)NC(=O)[C@@H](N)CCSC)[C@@H](C)O)C(=O)NCCCCC(NC(=O)C(CCCCNC(=O)CCCCCNC(=O)[C@H](CCCNC(=N)N)NC(=O)[C@H](CCCNC(=N)N)NC(=O)[C@H](CCCNC(=N)N)NC(=O)[C@H](CCCNC(=N)N)NC(=O)[C@H](C)NC(=O)[C@H](Cc1ccccc1)NC(=O)[C@H](CC(=O)O)NC(=O)[C@@H](NC(=O)[C@H](CCCCN)NC(=O)[C@H](CC(=O)O)NC(=O)[C@H](CCCNC(=N)N)NC(=O)[C@H](CCCNC(=N)N)NC(=O)[C@H](C)NC(=O)[C@@H](N)CCSC)[C@@H](C)O)NC(=O)CCCCCNC(=O)[C@H](CCCNC(=N)N)NC(=O)[C@H](CCCNC(=N)N)NC(=O)[C@H](CCCNC(=N)N)NC(=O)[C@H](CCCNC(=N)N)NC(=O)[C@H](C)NC(=O)[C@H](Cc1ccccc1)NC(=O)[C@H](CC(=O)O)NC(=O)[C@@H](NC(=O)[C@H](CCCCN)NC(=O)[C@H](CC(=O)O)NC(=O)[C@H](CCCNC(=N)N)NC(=O)[C@H](CCCNC(=N)N)NC(=O)[C@H](C)NC(=O)[C@@H](N)CCSC)[C@@H](C)O)C(N)=O)[C@@H](C)O (stereo partly shown) | – | – | C57BL/6 mouse female, femur | dose not given, 6 h | baseline: total | mean tissue distribution | 1.15% |
| C=C1NC(=O)[C@H](CO)NC(=O)[C@H](CSCC(N)=O)NC(=O)CNC(=O)[C@H](Cc2ccc(O)cc2)NC(=O)[C@H](C)NC(=O)[C@H](CO)NC(=O)[C@H](CC(=O)O)NC(=O)CNC(=O)[C@H](CC(C)C)NC(=O)[C@H](Cc2c[nH]c3ccccc23)NC(=O)[C@H](Cc2c[nH]c3ccccc23)NC(=O)c2ccc(-c3nc(C(=O)OC)cs3)nc2-c2csc1n2 | – | LC-MS | human serum | 37 °C | – | t1/2 | 88 h |
| C/C(=N\OCCCN1CCCCC1)c1ccc(C(F)(F)F)cc1 | – | – | mouse, plasma | oral, 75 mg/kg twice daily, day 1 | – | AUC(0-t) | 5950 ± 925 ng·h/mL |
| O=c1c(-c2cnn(-c3ccccc3)c2)c(C(F)(F)F)oc2c(O)c(O)ccc12 | – | – | Caco-2 | – | – | efflux ratio | 1.95 |
| CC(C)C[C@@H](NC(=O)[C@@H](CCCNC(=N)N)NC(=O)[C@@H](Cc1c[nH]cn1)NC(=O)[C@@H](Cc1c[nH]c2ccccc12)NC(=O)[C@@H](Cc1c[nH]cn1)NC(=O)[C@@H](Cc1ccccc1)NC(=O)[C@H](NC(=O)[C@@H](Cc1ccc(O)cc1)NC(=O)CNC(=O)CNC(=O)CCOCCOCCOCCNC(=O)CN1CCN(CC(=O)O)CCN(CC(=O)O)CC1)[C@H](C)O)C(=O)N[C@H](CC(N)=O)C(=O)N1CCC[C@@H]1C(=O)O [gallium-68 labelled] | – | – | C57BL/6 mice, male | intravenous, 1.85 MBq, 120 min | baseline: tumour over heart | tissue ratio | 5.69 ± 1.32 |
| N#Cc1ccccc1CC(N)C(=O)NC(Cc1ccc(Cl)cc1Cl)C(=O)NC(CC(=O)NCCCc1cccnc1)Cc1ccc(F)cc1 (stereo not shown) | – | metabolic stability | CD-1 mouse, liver microsomes | 1 µM | – | microsomal CLint | 278 µL/min/mg |
| CC[C@H](C)[C@H](NC(=O)[C@H](CCCCN)NC(=O)CNC(=O)[C@H](CC(C)C)NC(=O)[C@H](Cc1ccccc1)NC(=O)[C@H](CCCCN)NC(=O)[C@H](CO)NC(=O)[C@H](Cc1ccccc1)NC(=O)[C@H](Cc1c[nH]c2ccccc12)NC(=O)[C@H](CCC(N)=O)NC(=O)[C@@H](NC(=O)[C@H](Cc1ccccc1)NC(=O)CCCCCNC(=O)CN1CCN(CC(=O)O)CCN(CC(=O)O)CCN(CC(=O)O)CC1)C(C)C)C(=O)N[C@@H](CCC(=O)O)C(=O)N1CCC[C@H]1C(=O)N[C@@H](CC(=O)O)C(=O)N[C@H](C(=O)N[C@@H](CO)C(=O)N[C@@H](CCC(N)=O)C(=O)N[C@H](C(=O)N[C@@H](CCC(N)=O)C(=O)N[C@@H](CC(=O)O)C(=O)N1CCC[C@H]1C(=O)N[C@@H](CC(N)=O)C(=O)N[C@@H](CC(=O)O)C(=O)N[C@@H](CCC(N)=O)C(=O)N[C@@H](Cc1ccc(O)cc1)C(=O)N[C@@H](CCC(=O)O)C(=O)N1CCC[C@H]1C(=O)N[C@@H](Cc1ccccc1)C(=O)O)C(C)C)C(C)C [copper-64 labelled] | – | – | GZMB-/- mice, CT26 tumour-bearing, kidneys | 2 h, checkpoint inhibitor-treated | – | tissue uptake | 30.3 ± 4.5 %ID/g |
| C=C/C=C/C[C@@H](C)[C@@H](O)[C@H]1C(=O)N[C@@H](CC)C(=O)N(C)CC(=O)N(C)[C@@H](CC(C)C)C(=O)N[C@@H](C(C)C)C(=O)N(C)[C@@H](CC(C)C)C(=O)N[C@@H](C)C(=O)N[C@H](C)C(=O)N(C)[C@@H](CC(C)C)C(=O)N(C)[C@@H](CC(C)C)C(=O)N(C)[C@@H](C(C)C)C(=O)N1C | – | – | Wistar Kyoto rats, male | ip, 0.5 mg/kg/day, day 18 | baseline: vehicle | fractional sodium excretion | no effect |
| CC(C)(C)C(=O)OCOP(=O)(OCOC(=O)C(C)(C)C)C1CCCN(O)C1=O (stereo not shown) | SK-MEL-2 | – | – | – | – | CC50 | 45.8 µM |
| CCN1CC2(COC)C(O)CC(OC)C34C5CC6(O)C(OC)C(O)C(O)(C5C6OC(=O)c5ccccc5)C(C(OC)C23)C14 (stereo not shown) | – | – | Sprague-Dawley rat, plasma | oral, dose not given, with H in PCW extract | – | MRT(0-t) | 5.09 ± 0.218 h |
| COc1ccccc1-c1n[nH]c2nc(NC3CCN(C(=O)Cc4ccc(F)cc4F)CC3)ncc12 | – | bead binding, competition bead pull-down, refers to: LINJ.06.1110 | Leishmania donovani axenic amastigote extract | 10 µM | baseline: vehicle | relative abundance | 1.24 |
| CC(C)[C@H](NC(=O)[C@H](Cc1ccccc1)NC(=O)[C@H](Cc1ccccc1)NC(=O)OCC1c2ccccc2-c2ccccc21)C(=O)N[C@@H](CCC(=O)O)C(=O)N[C@@H](CCC(=O)O)C(N)=O | – | – | mouse, blood | intravenous, 10 mg/kg, single dose | – | MRT | 0.27 h |
| N=C(N)NCCC[C@H](NC(=O)[C@H](CCCNC(=N)N)NC(=O)[C@H](CCCNC(=N)N)NC(=O)[C@H](CCC(N)=O)NC(=O)[C@H](CCCNC(=N)N)NC(=O)[C@H](CCCNC(=N)N)NC(=O)[C@H](CCCCN)NC(=O)[C@H](CCCCN)NC(=O)[C@H](CCCNC(=N)N)NC(=O)CNC(=O)[C@H](Cc1ccc(O)cc1)NC(=O)[C@H](Cc1ccccc1)NC(=O)[C@H](Cc1ccccc1)NC(=O)[C@H](Cc1ccccc1)NC(=O)Cc1ccc2ccccc2c1)C(=O)O | – | – | C57BL/6 mice | intraperitoneal, 20 mg/kg, 24 h | direction not given | health score | 5 |
| CC(=O)N1c2ccc(-c3ccc(CNC(=O)c4cn5cc(-c6cnc(N)nc6)nc(N6CCOCC6)c5n4)cc3)cc2CC[C@@H]1C | – | – | C57BL/6 mice, non-tumour-bearing | – | – | MTD | 50 mg/kg/day |
| CCCCCCCCCCCCCCCC(=O)N[C@@H](CCC(=O)NCCOCCOCCC(=O)NCCOCCOCCC(=O)NCCCC[C@H](NC(=O)[C@H](CC(=O)O)NC(=O)[C@H](CC(C)C)NC(=O)[C@H](Cc1ccc(O)cc1)NC(=O)[C@H](CCCCN)NC(=O)[C@H](CO)NC(=O)[C@H](Cc1ccc(O)cc1)NC(=O)[C@H](CC(=O)O)NC(=O)[C@H](CO)NC(=O)[C@@H](NC(=O)[C@H](Cc1ccccc1)NC(=O)[C@@H](NC(=O)CNC(=O)[C@H](CCC(N)=O)NC(=O)[C@@H](CO)NC(=O)[C@@H](N)Cc1c[nH]cn1)[C@@H](C)O)[C@@H](C)O)C(=O)N[C@@H](CCCNC(=N)N)C(=O)N[C@@H](CCCNC(=N)N)C(=O)N[C@@H](C)C(=O)N[C@@H](CCC(N)=O)C(=O)N[C@@H](CC(=O)O)C(=O)N[C@@H](Cc1ccccc1)C(=O)N[C@H](C(=O)N[C@@H](CCC(N)=O)C(=O)N[C@@H](Cc1c[nH]c2ccccc12)C(=O)N[C@@H](CC(C)C)C(=O)N[C@@H](CC(C)C)C(=O)N[C@@H](CC(N)=O)C(=O)N[C@H](C(=O)NCC(=O)NCC(=O)N1CCC[C@H]1C(=O)N[C@@H](CO)C(=O)N[C@@H](CO)C(=O)NCC(=O)N[C@@H](C)C(=O)N1CCC[C@H]1C(=O)N1CCC[C@H]1C(=O)N1CCC[C@H]1C(=O)N[C@@H](CO)C(N)=O)[C@@H](C)O)C(C)C)C(=O)O | – | – | rhesus monkey, female, plasma | subcutaneous, 300 µg/kg, day 28, toxicokinetics, mean | – | AUC(0-t) | 3370 ng·h/mL |
| Cc1ccc(NS(=O)(=O)c2c(C(=O)N3CCCCCC3)c(C)n(C)c2C)c(Cl)c1 | CV-1 | – | African green monkey cells | 0.137 µM, 60 (unit not given) | – | viability | 100% and 96.6% |
| O=C1NC2(CC2)COc2ncc(F)cc2[C@H]2COCCN2c2ccn3ncc1c3n2 | – | – | Sprague-Dawley rat, male, blood | oral, 2.5 mg/kg/day, end of recovery, 4-week repeated-dose toxicity | baseline: red blood cells | reticulocytes | 2.3 ± 0.4% |
| CSCC[C@H](NC(=O)CNC(=O)[C@H](CCCCN)NC(=O)[C@H](CC(C)C)NC(=O)[C@@H]1CCCN1C(=O)[C@H](CO)NC(=O)[C@H](Cc1c[nH]cn1)NC(=O)[C@H](Cc1c[nH]c2ccccc12)NC(=O)[C@H](CCCNC(=N)N)NC(=O)[C@H](CC(C)C)NC(=O)[C@H](CCCNC(=N)N)NC(=O)[C@H](Cc1c[nH]c2ccccc12)NC(=O)[C@H](CS)NC(=O)CCCCCNC(=O)CN1CCN(CC(=O)O)CCN(CC(=O)O)CCN(CC(=O)O)CC1)C(=O)O [copper-64 labelled] | – | ex vivo biodistribution | male C57BL/6J mice, kidney | intravenous, 1.85 MBq, 30 h, B16-F10 tumour-bearing | – | tissue uptake | 7.45 %ID/g |

Some of these lines once more:
| Compound | target or system | assay | test system | setting | how to read | endpoint | result |
| --- | --- | --- | --- | --- | --- | --- | --- |
| CN1Cc2cc(Cl)ccc2-n2c(nnc2C2CCN(c3cccc([18F])n3)CC2)C1 | – | – | C57BL/6 mouse male, liver | intravenous, 3.7 MBq, 60 min | – | tissue uptake | 10.8 ± 1.31 %ID/g |
| C/C(=N\OCCCN1CCCCC1)c1ccc(C(F)(F)F)cc1 | – | – | mouse, plasma | oral, 75 mg/kg twice daily, day 1 | – | AUC(0-t) | 5950 ± 925 ng·h/mL |
| N=C(N)NCCC[C@H](NC(=O)[C@H](CCCNC(=N)N)NC(=O)[C@H](CCCNC(=N)N)NC(=O)[C@H](CCC(N)=O)NC(=O)[C@H](CCCNC(=N)N)NC(=O)[C@H](CCCNC(=N)N)NC(=O)[C@H](CCCCN)NC(=O)[C@H](CCCCN)NC(=O)[C@H](CCCNC(=N)N)NC(=O)CNC(=O)[C@H](Cc1ccc(O)cc1)NC(=O)[C@H](Cc1ccccc1)NC(=O)[C@H](Cc1ccccc1)NC(=O)[C@H](Cc1ccccc1)NC(=O)Cc1ccc2ccccc2c1)C(=O)O | – | – | C57BL/6 mice | intraperitoneal, 20 mg/kg, 24 h | direction not given | health score | 5 |
